Results collected from several papers.
Each line is one published result; not all experiments were run side by side. Values joined by “and” are separate records of one study, mostly repeats; a detail may differ.
TAGLN: Transgelin (TAGLN, Homo sapiens, UniProt Q01995)
Chain of UniProt Q9H4M9 (whole entry, looked up): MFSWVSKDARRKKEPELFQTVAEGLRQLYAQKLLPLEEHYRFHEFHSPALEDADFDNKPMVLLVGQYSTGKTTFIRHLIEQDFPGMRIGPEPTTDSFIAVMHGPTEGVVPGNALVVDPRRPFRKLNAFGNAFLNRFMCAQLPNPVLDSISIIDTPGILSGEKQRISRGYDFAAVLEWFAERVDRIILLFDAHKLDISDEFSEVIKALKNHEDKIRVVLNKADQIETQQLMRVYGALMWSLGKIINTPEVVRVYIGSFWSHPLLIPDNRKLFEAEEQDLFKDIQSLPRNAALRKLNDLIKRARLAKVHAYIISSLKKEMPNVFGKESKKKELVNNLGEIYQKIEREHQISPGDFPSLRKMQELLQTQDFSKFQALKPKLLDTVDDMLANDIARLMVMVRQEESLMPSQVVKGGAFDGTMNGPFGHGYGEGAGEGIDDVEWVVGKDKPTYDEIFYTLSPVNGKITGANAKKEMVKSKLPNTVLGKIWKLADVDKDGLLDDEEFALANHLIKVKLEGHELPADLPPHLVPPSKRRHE
Chain of UniProt Q01995 (whole entry, looked up): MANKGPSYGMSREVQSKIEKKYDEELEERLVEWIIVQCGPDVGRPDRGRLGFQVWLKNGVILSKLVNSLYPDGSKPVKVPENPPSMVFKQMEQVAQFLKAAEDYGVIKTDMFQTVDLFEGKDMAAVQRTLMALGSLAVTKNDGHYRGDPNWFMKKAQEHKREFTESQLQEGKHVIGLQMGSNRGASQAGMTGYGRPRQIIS
Chain of UniProt Q9SZU7 (whole entry, unmodified, looked up): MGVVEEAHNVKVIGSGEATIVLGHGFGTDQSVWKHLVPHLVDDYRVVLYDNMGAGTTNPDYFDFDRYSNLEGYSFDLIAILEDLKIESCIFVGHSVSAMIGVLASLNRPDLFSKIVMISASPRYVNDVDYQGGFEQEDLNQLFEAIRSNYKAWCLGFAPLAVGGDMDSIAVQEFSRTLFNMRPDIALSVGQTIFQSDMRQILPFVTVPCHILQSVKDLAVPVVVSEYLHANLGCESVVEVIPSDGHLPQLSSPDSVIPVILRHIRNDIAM
Chain of UniProt P31641 (whole entry, looked up): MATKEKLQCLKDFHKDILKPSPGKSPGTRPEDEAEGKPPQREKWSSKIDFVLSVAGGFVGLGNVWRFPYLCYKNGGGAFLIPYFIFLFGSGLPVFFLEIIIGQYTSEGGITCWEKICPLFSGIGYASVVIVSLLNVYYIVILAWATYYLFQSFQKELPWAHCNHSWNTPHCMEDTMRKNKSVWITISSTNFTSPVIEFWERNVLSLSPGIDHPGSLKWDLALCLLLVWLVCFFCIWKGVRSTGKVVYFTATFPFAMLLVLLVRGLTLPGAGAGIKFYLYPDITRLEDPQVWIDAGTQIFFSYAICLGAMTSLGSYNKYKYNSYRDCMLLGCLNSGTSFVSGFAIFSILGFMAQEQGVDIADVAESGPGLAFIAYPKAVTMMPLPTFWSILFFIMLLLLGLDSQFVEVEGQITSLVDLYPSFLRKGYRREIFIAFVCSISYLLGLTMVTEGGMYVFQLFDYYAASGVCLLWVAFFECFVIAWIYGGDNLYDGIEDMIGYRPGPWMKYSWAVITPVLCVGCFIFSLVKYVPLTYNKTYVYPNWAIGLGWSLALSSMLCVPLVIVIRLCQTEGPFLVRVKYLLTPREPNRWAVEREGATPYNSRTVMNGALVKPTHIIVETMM
Chain of UniProt Q05655 (whole entry, looked up): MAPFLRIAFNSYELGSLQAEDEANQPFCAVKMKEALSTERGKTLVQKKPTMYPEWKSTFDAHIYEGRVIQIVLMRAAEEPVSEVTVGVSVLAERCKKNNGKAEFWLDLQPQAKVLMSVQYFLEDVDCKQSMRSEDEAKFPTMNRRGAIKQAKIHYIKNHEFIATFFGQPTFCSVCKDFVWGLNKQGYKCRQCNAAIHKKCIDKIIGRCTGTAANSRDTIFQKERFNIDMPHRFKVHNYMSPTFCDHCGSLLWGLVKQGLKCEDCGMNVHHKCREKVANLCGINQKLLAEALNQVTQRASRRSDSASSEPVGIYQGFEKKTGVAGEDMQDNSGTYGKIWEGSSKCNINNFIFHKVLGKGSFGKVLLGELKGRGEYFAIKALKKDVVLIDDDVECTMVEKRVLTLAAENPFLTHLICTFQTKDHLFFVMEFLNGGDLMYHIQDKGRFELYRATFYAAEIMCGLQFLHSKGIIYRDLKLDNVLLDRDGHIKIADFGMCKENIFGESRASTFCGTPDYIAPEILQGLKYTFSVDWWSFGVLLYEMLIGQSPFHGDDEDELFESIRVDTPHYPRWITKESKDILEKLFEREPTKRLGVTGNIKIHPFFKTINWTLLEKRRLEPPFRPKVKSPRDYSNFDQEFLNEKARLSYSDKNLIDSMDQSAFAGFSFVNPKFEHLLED
Chain of UniProt Q8WXI4 (whole entry, looked up): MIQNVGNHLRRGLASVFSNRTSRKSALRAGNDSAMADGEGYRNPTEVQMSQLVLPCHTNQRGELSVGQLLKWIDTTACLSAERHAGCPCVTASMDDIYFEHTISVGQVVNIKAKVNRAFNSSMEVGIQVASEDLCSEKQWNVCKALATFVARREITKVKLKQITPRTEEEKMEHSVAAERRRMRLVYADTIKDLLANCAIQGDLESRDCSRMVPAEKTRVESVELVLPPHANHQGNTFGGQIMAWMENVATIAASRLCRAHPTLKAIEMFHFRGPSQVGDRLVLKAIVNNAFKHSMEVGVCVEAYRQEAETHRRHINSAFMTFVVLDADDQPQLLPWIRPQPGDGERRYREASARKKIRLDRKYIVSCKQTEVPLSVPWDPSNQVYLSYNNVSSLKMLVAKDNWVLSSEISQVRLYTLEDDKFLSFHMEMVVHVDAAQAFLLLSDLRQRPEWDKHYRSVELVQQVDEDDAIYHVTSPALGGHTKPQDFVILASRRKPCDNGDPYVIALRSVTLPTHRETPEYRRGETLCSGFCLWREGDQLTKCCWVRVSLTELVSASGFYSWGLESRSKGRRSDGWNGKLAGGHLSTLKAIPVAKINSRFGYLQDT
Chain of UniProt Q9NSY1 (whole entry, looked up): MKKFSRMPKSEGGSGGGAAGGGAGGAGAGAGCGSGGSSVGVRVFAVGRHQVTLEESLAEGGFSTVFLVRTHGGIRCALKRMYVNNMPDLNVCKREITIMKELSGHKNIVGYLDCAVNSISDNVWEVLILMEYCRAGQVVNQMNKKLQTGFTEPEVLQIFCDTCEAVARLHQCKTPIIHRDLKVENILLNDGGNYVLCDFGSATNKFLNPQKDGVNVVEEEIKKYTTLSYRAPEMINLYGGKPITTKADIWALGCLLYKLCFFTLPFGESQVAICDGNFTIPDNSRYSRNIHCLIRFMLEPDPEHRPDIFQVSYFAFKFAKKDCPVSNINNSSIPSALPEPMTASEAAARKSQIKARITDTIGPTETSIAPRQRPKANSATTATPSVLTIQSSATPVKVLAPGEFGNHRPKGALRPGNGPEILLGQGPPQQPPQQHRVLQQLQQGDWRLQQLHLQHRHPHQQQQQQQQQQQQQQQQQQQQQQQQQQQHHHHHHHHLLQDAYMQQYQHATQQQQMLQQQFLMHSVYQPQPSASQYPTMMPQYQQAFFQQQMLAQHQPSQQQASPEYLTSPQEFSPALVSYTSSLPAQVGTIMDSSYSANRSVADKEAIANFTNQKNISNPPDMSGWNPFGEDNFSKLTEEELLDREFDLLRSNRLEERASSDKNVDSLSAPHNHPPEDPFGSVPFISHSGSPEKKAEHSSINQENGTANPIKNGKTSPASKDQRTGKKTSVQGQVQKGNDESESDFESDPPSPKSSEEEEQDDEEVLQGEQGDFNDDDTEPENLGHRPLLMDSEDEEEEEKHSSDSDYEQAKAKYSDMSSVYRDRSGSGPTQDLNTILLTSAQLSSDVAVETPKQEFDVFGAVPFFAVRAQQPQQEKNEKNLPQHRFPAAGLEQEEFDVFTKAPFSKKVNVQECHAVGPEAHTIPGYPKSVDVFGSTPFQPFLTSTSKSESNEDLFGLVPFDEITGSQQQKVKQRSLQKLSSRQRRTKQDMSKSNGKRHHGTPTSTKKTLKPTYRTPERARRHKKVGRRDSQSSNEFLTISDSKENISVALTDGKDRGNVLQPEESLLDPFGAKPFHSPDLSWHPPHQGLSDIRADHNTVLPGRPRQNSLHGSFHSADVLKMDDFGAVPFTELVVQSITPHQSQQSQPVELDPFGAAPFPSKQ

CCOC(=O)C(CCNC(=O)/C=C/c1ccc(OC)c(OC)c1/C=C/c1ccc(OC)c(OC)c1)Cc1cccc(OC)c1 (centres unmarked) — Kd (TAGLN; binding, surface plasmon resonance): 110 µM
Cc1cccc2c1N(C(=O)n1ccnn1)CC2 — Kd (KAI2 (Arabidopsis thaliana, UniProt Q9SZU7, S95A); ITC; S95A mutant): 2440 µM and 1980 µM
CCOC(=O)C(CCNC(=O)/C=C/c1ccc(O)c(O)c1/C=C/c1ccc(O)c(O)c1)Cc1ccccc1 (centres unmarked) — Kd (TAGLN; binding, surface plasmon resonance): 1350 µM
Cc1c[nH]c2nccc(-c3ccc(C(=O)N[C@@H]4c5c(F)cc(C(F)F)cc5C[C@@H]4O)cn3)c12 — Kd (BMP-2-inducible protein kinase (BMP2K, Homo sapiens, UniProt Q9NSY1); binding, competition with immobilised ligand): 0.37 µM
NCCC(=O)O — Kd (Sodium- and chloride-dependent taurine transporter (SLC6A6, Homo sapiens, UniProt P31641); binding, MST): 0.72 µM
CCOC(=O)N1CCN(C(c2cccs2)c2c(CC)[nH]c3ccccc23)CC1 (centres unmarked) — Kd (Acyl-coenzyme A thioesterase 11, START domain (ACOT11, Homo sapiens, UniProt Q8WXI4); binding, microscale thermophoresis): 4.12 µM
Cn1ncc2cc(-c3cncc(Cl)c3N3CCC4(CCNC4=O)CC3)ccc21 — Kd (Protein kinase C delta type (PRKCD, Homo sapiens, UniProt Q05655); cell-free assay; lysate): 13 µM
NC(=O)C[C@@H]1NC(=O)[C@H](Cc2ccc(O)cc2)NC(=O)CNC(=O)CNC(=O)[C@H](CCC(=O)O)NC(=O)[C@H](CCC(=O)O)NC(=O)[C@H](Cc2ccccc2)NC(=O)[C@@H]2CCCN2C1=O — Kd (EH domain-containing protein 1, EH domain (Homo sapiens, UniProt Q9H4M9); peptide binding, ITC; 20 °C, 0 mM NaCl): 1.51 µM and 1.5 µM and 1.33 µM

Some of these lines once more:
Cc1c[nH]c2nccc(-c3ccc(C(=O)N[C@@H]4c5c(F)cc(C(F)F)cc5C[C@@H]4O)cn3)c12 — Kd (BMP-2-inducible protein kinase (BMP2K, Homo sapiens, UniProt Q9NSY1); binding, competition with immobilised ligand): 0.37 µM
